Measured values of several laboratories.
Numbered parts are unrelated; each lists some results of a single study.

Block 1
Target: Ras GTPase-activating protein-binding protein 1, full length (G3BP1, Homo sapiens, UniProt Q13283)
Chain of UniProt Q13283 (whole entry, looked up): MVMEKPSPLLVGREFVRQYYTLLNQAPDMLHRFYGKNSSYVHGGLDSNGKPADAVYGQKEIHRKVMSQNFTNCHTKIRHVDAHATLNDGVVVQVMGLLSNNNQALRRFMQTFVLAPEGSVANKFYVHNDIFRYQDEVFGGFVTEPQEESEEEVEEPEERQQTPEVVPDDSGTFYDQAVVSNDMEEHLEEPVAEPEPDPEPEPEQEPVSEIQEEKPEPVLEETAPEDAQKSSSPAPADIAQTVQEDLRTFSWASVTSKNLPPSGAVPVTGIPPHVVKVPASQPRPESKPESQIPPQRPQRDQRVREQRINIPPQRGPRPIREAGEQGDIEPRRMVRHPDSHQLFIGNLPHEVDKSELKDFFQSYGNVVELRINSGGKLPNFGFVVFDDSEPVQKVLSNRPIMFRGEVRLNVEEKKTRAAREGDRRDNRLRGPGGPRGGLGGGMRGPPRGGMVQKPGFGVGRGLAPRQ
Method: RNA Bind-n-Seq
Molecule type: RNA
Matrix: in vitro
Concentration: 200 nM
Setting: whole 134-nt RNA, ends assumed
With: 150 mM LiCl
Relative to: input library
Direction: higher = stronger binding
Endpoint: log2 enrichment
Each molecule: 7-deaza-guanosine replaces G
Shared flanks, not repeated: GGGAGUUCUACAGUCCGACGAUC … UGGAAUUCUCGGGUGUCAAGG
AGUCCUGUGCUACACAUCGUAUGUACCGAAUCGGGGAAAAAGGGGUUUGGGGUGGGGAAAGUAUUAUGUUACGCCGUUCGGAUCUGCACU: -0.681
UUAAGGGAAUCUAUUGCUGAACACAAACCUCAUAUUGACAAACUACUAAAGAUAGGCCCACAACUAAAGGAAUUAAACCCUGAGGAAGGG: 0.201
UCCUGUGCUACACAUCGUAUGUACCGAAUCGGGAAAAAAGGAAAAAAGGAAAAAAGGGGAAAGUAUUAUGUUACGCCGUUCGGAUCUGCA: -0.531
UGGAGCACAGGGCGAGCUCUCCUCCGCCCUGCAGCCUCAGGUAAGGAUCCGGACCUUCACUGCUGCCCCAACUGGGGCUCCUCAGCUCGG: 0.235
CUGUGCUACACAUCGUAUGUACCGAAUCGGGAAAAAAAGGGAAAAAAAGGGUUUUUUUGGGAAAGUAUUAUGUUACGCCGUUCGGAUCUG: -1.08
GUCCUGUGCUACACAUCGUAUGUACCGAAUCGGGAAAAAAAGGGAAAAAAAGGGUGGGAAAGUAUUAUGUUACGCCGUUCGGAUCUGCAC: -1.33
CUGUGCUACACAUCGUAUGUACCGAAUCGGGUUUUUUUGGGGUUUUUUUGGGUUUUUUUGGAAAGUAUUAUGUUACGCCGUUCGGAUCUG: 1.49
CCUCAAGUCCUGUGCUACACAUCGUAUGUACCGAAUCGGUGGUGGAAAAAGGAAAGUAUUAUGUUACGCCGUUCGGAUCUGCACUUCCAG: 0.113
ACCAUGCAGGUGGGAAACUUUGGGAAGUGGGGCAAGGGGGGGAUAGGGAGGGGGGUAACACUUUGGGAACAGGUGGUCCCAGGUCGUUUC: 0.303
GCAGGAAGUAAAAACAAAUGGAAAUGCUUCGGAUAGUGGCAGGGGUGGUGGUUGCUAAGGAAAGGGUGGGAUGGGAGUGGGUAAAGAGUU: 0.223
UCAAGUCCUGUGCUACACAUCGUAUGUACCGAAUCGGAAAAAAAGGAGGAAAGGAAAGUAUUAUGUUACGCCGUUCGGAUCUGCACUUCC: -0.369

Block 2
Target: RNA binding protein fox-1 homolog 2, RRM domain, GST-SBP tag (RBFOX2, Homo sapiens, UniProt O43251-10, residues 100-194)
Method: RNA Bind-n-Seq
Molecule type: RNA
Matrix: in vitro
Concentration: 365 nM
Setting: natural RNA segment, single round, ends assumed
Relative to: no-protein control
Direction: higher = stronger binding
Endpoint: RBNS enrichment (R)
Shared flanks, not repeated: GGGAGUUCUACAGUCCGACGAUC … UGGAAUUCUCGGGUGCCAA
Construct (chain): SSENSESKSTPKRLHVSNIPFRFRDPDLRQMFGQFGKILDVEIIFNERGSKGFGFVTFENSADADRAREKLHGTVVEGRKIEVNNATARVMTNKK
GCCUCUGAGAGCAUCAGGCCUAGAGGCCUGACUGCCAAGCCAUGGGUAGCCUGGGUGUAAAACCUGGAGAUGGUGGAUGAUCCCCACGCCACAGCCCUUUUGUCUCUGCA: 0.753
UAACUGAAUAUUCAAAGCACUGCGGGAAACCUGUGCCUCCAGACACUGCUCCCUGUGAAAUUCUGAAGGUGUUUCUUAGUGGAUUAUCGUAAAUCACUGAACCUUUUUUU: 0.506
AGAAUGUAACUGUUGAUGUGAGCAGCAGAAAUCUGCUUAUAGAUAACAUACUGUUAAUAUUUAAUUAAAAGCAUUGUUUUUUCUAGAGCUGAGAAAUAGAAGCUAAAGAA: 0.522
UUUGGGCUGCUGGGGCUGAGCUGUCUGCUUGAUGCUGACAGACUCCUAGUGUCAGCUCCCAGGCCGCCUUAGAGCUGCUCAUUCCUGAAUGACUGGCUCCCCUGCCCUUU: 0.272
UUGAAUUUGAGACCUAUUGUAAGCAUGAUCCCUACCUACAACCCUAUUUUUACAUACCCAAUUCCAGUAACUCUCAAAUCCAGUAUUUUACUCAAACUCUGUUGGGGCAU: 10.5
GAGUCAGUGUGUCAUUUCAGUUUAACUGGAUGAACUGUCAAAUAAAGAAAUGCAGAAUGAAAACAAACUGUCUCUUACUUGUCCGUGAAGCGUGCGGCUUGGGUGUUGUA: 0.425
UGCAAAUAGAUGGAAUUACAGCAAAAUGUGCUCAAUGUAUUUGCCUGCUUACAACACUGGGAGAUGUGUUUGCCAGUAAGUUGCUCAUCACAAGAGCACCAGACUUGGGG: 0.615
AUCUUUUACAAAGGCAAGUUGCCACUUGUCAUUUUUGUUUCUGAAAAAUAAAAGUAUAACUUAUUCAAUUUUUAGUGCUUUGUUAUUGAGAAAAUCUUCUUAAAUGUUGA: 1.14
AUGGAAGGCUACUAGGAGCCACUACACUAACCUUUCUUCAUGCAUAAAUCCAAUGAGUACUACCCCACCCAUCUUGAUGAAUAUCAAUAUCUUCAGGACUGCAAUCAUUC: 0.385
UCUUGUCCAGCAGGGCCUUGACAGGAAUCCAGGGAGUAGCUCCUGGCCAGAACCAGCCUCUGCGGGGCUUGUGCUCUGCAAAGACUCUGCUGCUGGGGAUUCAGCUCUAG: 0.203
AAGUUCCUUUUUACUUCAAGCUACUUUUUAUAAAAAAGAACAUUUUUCCAGUGUGGUUUUUAACAGAUAAUACAUUUCUUCCACAUUCAGAUUAGUAUUCGGACAUGAAU: 0.403
CGCCGCCCUGCGGUUGGGCCGGUGGAGGCCCAGGCGUUGCUAGGAUUGCAUCAGUUUUCCUGUUUGCACUAUUUCUUUUUGUAACAUUGGCCCUGUGUGAAGUAUUUCGA: 0.685

Block 3
Target: RING finger protein unkempt homolog, zinc fingers 1-6, GST-SBP tag (UNK, Homo sapiens, UniProt Q9C0B0, residues 30-357)
Method: RNA Bind-n-Seq
Molecule type: RNA
Matrix: in vitro
Concentration: not given
Setting: RNA with constant flanks, ends assumed
Relative to: input RNA pool
Direction: higher = stronger binding
Endpoint: bound/input enrichment
Shared flanks, not repeated: GGGAGUUCUACAGUCCGACGAUC … CAACAGAGGAUUGAGCAUCA
Residues (chain): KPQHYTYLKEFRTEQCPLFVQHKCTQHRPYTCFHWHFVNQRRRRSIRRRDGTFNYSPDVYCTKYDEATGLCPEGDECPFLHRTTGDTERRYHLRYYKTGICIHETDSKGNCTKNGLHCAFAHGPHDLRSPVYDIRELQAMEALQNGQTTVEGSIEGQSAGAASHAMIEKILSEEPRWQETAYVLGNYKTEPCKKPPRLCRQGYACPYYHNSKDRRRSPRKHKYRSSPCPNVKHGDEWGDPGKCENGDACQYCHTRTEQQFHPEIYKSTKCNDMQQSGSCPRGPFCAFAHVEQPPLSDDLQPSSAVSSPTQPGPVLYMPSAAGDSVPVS
ACUGUUGUUAAGCACUGUGUUCCAGACCGUGUCUGACUUAGUGUAACCUAGGAGAUUUUACCGUUUUAUUUUAAUGAAACCCUGAUUGACGCACAGCAGUGGGGAGAACAGCGUCUUUUA: 2.1 ratio
GAGAUGAGGGCAAGAGCGAUUAAAGCCCUAAUGAAAGCUGGUGAUAUAAAAAAGCCAGCCCCGGUAUUUAACUUGAUUUUGAAUUUUAGGUAUGUUUGAACAAAGCCACAUCAUUUAAUU: 0.375 ratio
GGACUGCAGAACGGCUCAGACUUGCAGUUCAUCGAGAUGCAGAGAGAUGCCAAUAGACAAAUCCGUGAAUACAAAUUCAAGCUUUCGAAAGCAGAACAAGACAUAGCUACCUUGGAACAA: 0.211 ratio
GGGGUGCCAGCGCUGACGCAGAACCUACCAAGGAUACUCAGAAAAGAACGUCCUAUAUCAUCCGGGAUUUUCCCUCUACCUGCUGGAGAUGGAUUGCUUACACCUGACACUCAGAAAGGA: 0.145 ratio
AUUAUGUCUUAUAAUCCUGCAUCACUUCUAUCCUAUCCAGUCAUAUCUAAUGUAGAAAAUCCGUUUCCAGUGAAAGUAAUAUGUAGUGCUUUUAUGAUAUUUGUGUGCAAUAUCCCCUCU: 1.94 ratio
AUGAUGAUUUUCAUUGAAGCAUCCUCAGAAAACCCUUGUAGUCUUUACUCUUCUGUCUGUUACCGCCCCCAGGCAGAAAAAGUUUACAAGUUAUGCAGCCCACCCGCUGAUUUGCAUAAG: 0.381 ratio
ACAGUUAGAAAGCAAAGUGUUAAAUGGAGAAGAUACUUGUUUUUAUUAAACAUUUUGAGAUUCCGAUAAACUACAUUUUAACUGAAUGUCUAAAGUGAUUAUCUUUUUUCCCCCCAAGUU: 0.222 ratio
ACCUUGUUUAAUGCAGAAAGAGACCUUGAAAGGUCAGUCAUGAAAUCUGGUUUGAUUAUUAACCGCUAUCUUUUAGGAAGAAGCUUUUUCCCUAUGUACGAUGUCAUACUGCAGACUUAA: 1.17 ratio
CCGUCUCAGCUUACCCACUCUUGACUCCUUUGAGCCUUUCAGAGGGGCAGUUUCUGGCCGCCGCAGCUUUUAUACUUUCACGGAAUUCCUUCAGUCCAGAGAGUUCUGGCAGCAGGCCGU: 0.1 ratio
GAAGAAUACUCCUUUGGUAGAUCAAAGAUAUUCAUCCGAAACCCAAGAACAUUAUUCAAAUCCGAAGACCUGAGGAAGCAACGCCUGGAGGACUUGGCCACUCUCAUUCAGAAGAUAUAU: 0.31 ratio
GAAUUGAUUAAGGAAAAACUUAUUCUUCCCUAUGUGGAACUGGAUCUGCAUAGCUAUGAUUCCGGCACCGAGAAUCGUGAUGCCACCAAUGACCAGGUCACCAAAGAUGCUGCAGAGGCU: 0.199 ratio

Block 4
Target: Histone acetyltransferase KAT6A, winged helix 2, GST fusion (KAT6A, Homo sapiens, UniProt Q92794, residues 85-181)
Method: protein binding microarray
Molecule type: double-stranded DNA, one strand shown
Matrix: in vitro
Concentration: not given
Setting: 8-mer, flanks averaged, mean of 2 arrays, mostly near background
Relative to: not given
Direction: higher = stronger binding
Endpoint: E-score
Target sequence (chain): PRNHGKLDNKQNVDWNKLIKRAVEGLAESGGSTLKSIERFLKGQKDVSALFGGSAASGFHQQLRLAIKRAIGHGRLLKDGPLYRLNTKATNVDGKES
ACCCAGAG: -0.0211
GAATATGA: -0.0865
AGGATCCA: -0.113
CGAACTCC: 0.139
CAATAATA: 0.0407
AGACTAAT: 0.043
CAATATAA: 0.0669
TAATCACA: -0.101
ACACTTCC: -0.194
CACTGTGA: 0.00185
AACTCTGG: 0.0273
GCGTCAGC: 0.0202
GCAAGCCC: 0.0378
TCGGCAGA: 0.092
GAGTCAGC: -0.0133
ACCGTCGA: -0.126
ATGTATGA: -0.0378
CCAGGGGA: 0.0358
AGGTCCAC: -0.114
CTGCATCC: 0.107
ACTTACCC: -0.114
AACCAATG: 0.0212

Some of these lines once more (block 2):
AUGGAAGGCUACUAGGAGCCACUACACUAACCUUUCUUCAUGCAUAAAUCCAAUGAGUACUACCCCACCCAUCUUGAUGAAUAUCAAUAUCUUCAGGACUGCAAUCAUUC: 0.385
CGCCGCCCUGCGGUUGGGCCGGUGGAGGCCCAGGCGUUGCUAGGAUUGCAUCAGUUUUCCUGUUUGCACUAUUUCUUUUUGUAACAUUGGCCCUGUGUGAAGUAUUUCGA: 0.685
UCUUGUCCAGCAGGGCCUUGACAGGAAUCCAGGGAGUAGCUCCUGGCCAGAACCAGCCUCUGCGGGGCUUGUGCUCUGCAAAGACUCUGCUGCUGGGGAUUCAGCUCUAG: 0.203
GCCUCUGAGAGCAUCAGGCCUAGAGGCCUGACUGCCAAGCCAUGGGUAGCCUGGGUGUAAAACCUGGAGAUGGUGGAUGAUCCCCACGCCACAGCCCUUUUGUCUCUGCA: 0.753
AUCUUUUACAAAGGCAAGUUGCCACUUGUCAUUUUUGUUUCUGAAAAAUAAAAGUAUAACUUAUUCAAUUUUUAGUGCUUUGUUAUUGAGAAAAUCUUCUUAAAUGUUGA: 1.14
GAGUCAGUGUGUCAUUUCAGUUUAACUGGAUGAACUGUCAAAUAAAGAAAUGCAGAAUGAAAACAAACUGUCUCUUACUUGUCCGUGAAGCGUGCGGCUUGGGUGUUGUA: 0.425
UAACUGAAUAUUCAAAGCACUGCGGGAAACCUGUGCCUCCAGACACUGCUCCCUGUGAAAUUCUGAAGGUGUUUCUUAGUGGAUUAUCGUAAAUCACUGAACCUUUUUUU: 0.506
AGAAUGUAACUGUUGAUGUGAGCAGCAGAAAUCUGCUUAUAGAUAACAUACUGUUAAUAUUUAAUUAAAAGCAUUGUUUUUUCUAGAGCUGAGAAAUAGAAGCUAAAGAA: 0.522
AAGUUCCUUUUUACUUCAAGCUACUUUUUAUAAAAAAGAACAUUUUUCCAGUGUGGUUUUUAACAGAUAAUACAUUUCUUCCACAUUCAGAUUAGUAUUCGGACAUGAAU: 0.403
